Measurements of several laboratories.
Lines come from different studies, so protocols differ.

CC[C@H](C)[C@@H]1NC(=O)[C@H](CC(C)C)NC(=O)[C@@H](NC(=O)[C@H](CO)NC(=O)[C@H](CCCNC(=N)N)NC(=O)[C@@H](N)CO)CSSC[C@@H](C(=O)N[C@@H](CCC(N)=O)C(=O)N[C@@H](CCCNC(=N)N)C(=O)N[C@@H](CC(C)C)C(=O)N[C@@H](Cc2ccccc2)C(N)=O)NC(=O)[C@H](C(C)C)NC(=O)[C@H]([C@@H](C)CC)NC(=O)[C@H](CC(C)C)NC(=O)[C@@H](NC(=O)[C@H](CO)NC(=O)[C@H](CCCNC(=N)N)NC(=O)[C@@H](N)CO)CSSC[C@@H](C(=O)N[C@@H](CCC(N)=O)C(=O)N[C@@H](CCCNC(=N)N)C(=O)N[C@@H](CC(C)C)C(=O)N[C@@H](Cc2ccccc2)C(N)=O)NC(=O)[C@H](C(C)C)NC1=O
MIC (Candida parapsilosis; broth microdilution; ATCC 22019): > 100 µg/mL

CC(C)=CCc1cc([C@@H]2CC(=O)c3ccc(O)c(CC=C(C)C)c3O2)c(O)c(CC=C(C)C)c1O
MIC (Salmonella enterica serovar Typhi; DMST 22842; up to 128 µg/mL): inactive

O=C(NC12CC3CC(CC(C3)C1)C2)c1cc2cc(Cl)ccc2[nH]1
MIC (Mycobacterium tuberculosis variant bovis BCG; microbial growth; THP-1, BCG; intracellular): 0.06 µM

CC[C@H](C)[C@H](NC(=O)[C@H](C)NC(=O)[C@@H]1CCCN1C(=O)[C@H](CC(C)C)NC(=O)[C@H](Cc1ccccc1)NC(=O)[C@H](CCCCN)NC(=O)[C@H](CCSC)NC(=O)[C@H](C)NC(=O)[C@H](CCSC)NC(=O)[C@H](CCCCN)NC(=O)[C@H](C)NC(=O)[C@@H](NC(=O)[C@@H](NC(=O)CNC(=O)[C@H](Cc1ccccc1)NC(=O)[C@@H](N)Cc1ccccc1)C(C)C)[C@@H](C)CC)C(=O)N[C@@H](Cc1ccccc1)C(=O)N[C@@H](CCCCN)C(=O)N[C@@H](CCC(N)=O)C(=O)N[C@H](C(=O)N[C@@H](CCC(N)=O)C(=O)N[C@@H](CCCCN)C(=O)N[C@@H](CCCCN)C(=O)N[C@@H](CCCNC(=N)N)C(=O)N[C@@H](CCCCN)C(N)=O)[C@@H](C)CC
MIC (Mycolicibacterium smegmatis; ATP luminescence; ATCC 607; 48 h): 12.5 to 25 µM

N=C(N)NCCC[C@@H]1NC(=O)[C@H](CCCNC(=N)N)NC(=O)[C@H](CCCNC(=N)N)NC(=O)[C@H](CCCNC(=N)N)NC(=O)[C@H](Cc2c[nH]c3ccccc23)NC(=O)[C@H](CCCNC(=N)N)NC(=O)[C@H](CCCNC(=N)N)NC(=O)[C@@H](N)CCCn2cc(nn2)C[C@@H](C(N)=O)NC1=O
MIC (Salmonella enterica serovar Paratyphi B; 24 h, 37 °C): 15.6 µg/mL

Cc1ccc2nc(C)c(CC(=O)NCc3ccc(N(C)C)cc3)n2c1
MIC (Mycobacterium tuberculosis variant bovis BCG; microbial growth; BCG; 6 days): 10 µM

CC[C@H](C)[C@H](NC(=O)[C@H](CCC(N)=O)NC(=O)[C@@H]1CCCN1C(=O)[C@@H](NC(=O)[C@@H](NC(=O)[C@H](Cc1ccccc1)NC(=O)[C@H](C)NC(=O)[C@H](C)NC(=O)[C@H](CC(C)C)NC(=O)[C@H](CCCNC(=N)N)NC(=O)[C@H](C)NC(=O)[C@H](CC(C)C)NC(=O)[C@H](CC(C)C)NC(=O)CNC(=O)[C@@H](NC(=O)[C@@H](N)Cc1ccccc1)C(C)C)C(C)C)[C@@H](C)CC)C(=O)N[C@H](C(=O)N[C@@H](CCCCN)C(=O)N[C@@H](CCCNC(=N)N)C(=O)N[C@@H](Cc1ccccc1)C(=O)N[C@@H](CCC(N)=O)C(=O)N[C@@H](CCCCN)C(=O)N[C@@H](CCCCN)C(=O)N[C@@H](CC(N)=O)C(N)=O)C(C)C
MIC (Mycolicibacterium smegmatis; ATP luminescence; ATCC 607; 48 h): 50 µM

Cc1ccc2nc(C)c(C(=O)NCc3cccs3)n2c1
MIC (Mycobacterium tuberculosis variant bovis BCG; microbial growth; THP-1, BCG; intracellular): > 10 µM

Cc1ccc(CNC(=O)C(=O)c2c(C)nc3ccc(C)cn23)cc1
MIC (Mycobacterium tuberculosis variant bovis BCG; microbial growth; BCG; 6 days): 15 µM

c1cc2c(s1)CCOC21CCN(Cc2ccc3c(c2)OCCO3)CC1
MIC (Moraxella catarrhalis; microbial growth, broth dilution; 1502): 32 µM

COc1ccc2c3c(oc2c1CC=C(C)C)-c1cc(CC=C(C)C)c(O)cc1OC3
MIC (Salmonella enterica serovar Typhi; DMST 22842; up to 128 µg/mL): inactive

Cc1ccc(-c2nc3ccc(C)cn3c2CC(=O)NCc2ccc(N(C)C)cc2)cc1
MIC (Mycobacterium tuberculosis variant bovis BCG; microbial growth; BCG; 6 days): 24 µM

Some of these lines once more:
Cc1ccc2nc(C)c(CC(=O)NCc3ccc(N(C)C)cc3)n2c1
MIC (Mycobacterium tuberculosis variant bovis BCG; microbial growth; BCG; 6 days): 10 µM

Cc1ccc(CNC(=O)C(=O)c2c(C)nc3ccc(C)cn23)cc1
MIC (Mycobacterium tuberculosis variant bovis BCG; microbial growth; BCG; 6 days): 15 µM
